Experimental data of several laboratories.
Lines come from different studies, so protocols differ. Numbers after ± are the reported error.
Chain of UniProt Q13177 (whole entry, looked up): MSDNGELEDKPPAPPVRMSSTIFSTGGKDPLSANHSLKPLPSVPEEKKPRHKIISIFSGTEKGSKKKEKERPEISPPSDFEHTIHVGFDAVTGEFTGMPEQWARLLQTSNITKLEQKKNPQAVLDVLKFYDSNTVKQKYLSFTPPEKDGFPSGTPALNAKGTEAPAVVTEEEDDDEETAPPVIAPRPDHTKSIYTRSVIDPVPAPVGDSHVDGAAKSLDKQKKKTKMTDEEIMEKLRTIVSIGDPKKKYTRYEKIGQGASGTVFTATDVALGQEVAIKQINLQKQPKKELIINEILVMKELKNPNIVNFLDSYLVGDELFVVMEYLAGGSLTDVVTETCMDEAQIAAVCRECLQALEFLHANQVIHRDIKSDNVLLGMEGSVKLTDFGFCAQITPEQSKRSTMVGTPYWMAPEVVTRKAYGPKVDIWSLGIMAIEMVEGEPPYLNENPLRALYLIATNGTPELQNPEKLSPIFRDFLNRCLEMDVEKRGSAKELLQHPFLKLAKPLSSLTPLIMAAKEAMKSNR
Chain of UniProt P21729 (whole entry, looked up): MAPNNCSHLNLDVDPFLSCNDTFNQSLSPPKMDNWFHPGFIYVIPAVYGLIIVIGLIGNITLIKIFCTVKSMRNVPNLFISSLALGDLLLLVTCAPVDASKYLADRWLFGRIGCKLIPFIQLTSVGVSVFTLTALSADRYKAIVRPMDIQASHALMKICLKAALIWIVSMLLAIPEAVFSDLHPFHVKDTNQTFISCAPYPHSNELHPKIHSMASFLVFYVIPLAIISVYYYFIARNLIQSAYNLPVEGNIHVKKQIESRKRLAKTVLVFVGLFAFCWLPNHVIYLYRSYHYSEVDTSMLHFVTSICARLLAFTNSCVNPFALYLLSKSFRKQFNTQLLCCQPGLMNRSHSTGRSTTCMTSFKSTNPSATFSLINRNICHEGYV
Chain of UniProt Q15858 (whole entry, looked up): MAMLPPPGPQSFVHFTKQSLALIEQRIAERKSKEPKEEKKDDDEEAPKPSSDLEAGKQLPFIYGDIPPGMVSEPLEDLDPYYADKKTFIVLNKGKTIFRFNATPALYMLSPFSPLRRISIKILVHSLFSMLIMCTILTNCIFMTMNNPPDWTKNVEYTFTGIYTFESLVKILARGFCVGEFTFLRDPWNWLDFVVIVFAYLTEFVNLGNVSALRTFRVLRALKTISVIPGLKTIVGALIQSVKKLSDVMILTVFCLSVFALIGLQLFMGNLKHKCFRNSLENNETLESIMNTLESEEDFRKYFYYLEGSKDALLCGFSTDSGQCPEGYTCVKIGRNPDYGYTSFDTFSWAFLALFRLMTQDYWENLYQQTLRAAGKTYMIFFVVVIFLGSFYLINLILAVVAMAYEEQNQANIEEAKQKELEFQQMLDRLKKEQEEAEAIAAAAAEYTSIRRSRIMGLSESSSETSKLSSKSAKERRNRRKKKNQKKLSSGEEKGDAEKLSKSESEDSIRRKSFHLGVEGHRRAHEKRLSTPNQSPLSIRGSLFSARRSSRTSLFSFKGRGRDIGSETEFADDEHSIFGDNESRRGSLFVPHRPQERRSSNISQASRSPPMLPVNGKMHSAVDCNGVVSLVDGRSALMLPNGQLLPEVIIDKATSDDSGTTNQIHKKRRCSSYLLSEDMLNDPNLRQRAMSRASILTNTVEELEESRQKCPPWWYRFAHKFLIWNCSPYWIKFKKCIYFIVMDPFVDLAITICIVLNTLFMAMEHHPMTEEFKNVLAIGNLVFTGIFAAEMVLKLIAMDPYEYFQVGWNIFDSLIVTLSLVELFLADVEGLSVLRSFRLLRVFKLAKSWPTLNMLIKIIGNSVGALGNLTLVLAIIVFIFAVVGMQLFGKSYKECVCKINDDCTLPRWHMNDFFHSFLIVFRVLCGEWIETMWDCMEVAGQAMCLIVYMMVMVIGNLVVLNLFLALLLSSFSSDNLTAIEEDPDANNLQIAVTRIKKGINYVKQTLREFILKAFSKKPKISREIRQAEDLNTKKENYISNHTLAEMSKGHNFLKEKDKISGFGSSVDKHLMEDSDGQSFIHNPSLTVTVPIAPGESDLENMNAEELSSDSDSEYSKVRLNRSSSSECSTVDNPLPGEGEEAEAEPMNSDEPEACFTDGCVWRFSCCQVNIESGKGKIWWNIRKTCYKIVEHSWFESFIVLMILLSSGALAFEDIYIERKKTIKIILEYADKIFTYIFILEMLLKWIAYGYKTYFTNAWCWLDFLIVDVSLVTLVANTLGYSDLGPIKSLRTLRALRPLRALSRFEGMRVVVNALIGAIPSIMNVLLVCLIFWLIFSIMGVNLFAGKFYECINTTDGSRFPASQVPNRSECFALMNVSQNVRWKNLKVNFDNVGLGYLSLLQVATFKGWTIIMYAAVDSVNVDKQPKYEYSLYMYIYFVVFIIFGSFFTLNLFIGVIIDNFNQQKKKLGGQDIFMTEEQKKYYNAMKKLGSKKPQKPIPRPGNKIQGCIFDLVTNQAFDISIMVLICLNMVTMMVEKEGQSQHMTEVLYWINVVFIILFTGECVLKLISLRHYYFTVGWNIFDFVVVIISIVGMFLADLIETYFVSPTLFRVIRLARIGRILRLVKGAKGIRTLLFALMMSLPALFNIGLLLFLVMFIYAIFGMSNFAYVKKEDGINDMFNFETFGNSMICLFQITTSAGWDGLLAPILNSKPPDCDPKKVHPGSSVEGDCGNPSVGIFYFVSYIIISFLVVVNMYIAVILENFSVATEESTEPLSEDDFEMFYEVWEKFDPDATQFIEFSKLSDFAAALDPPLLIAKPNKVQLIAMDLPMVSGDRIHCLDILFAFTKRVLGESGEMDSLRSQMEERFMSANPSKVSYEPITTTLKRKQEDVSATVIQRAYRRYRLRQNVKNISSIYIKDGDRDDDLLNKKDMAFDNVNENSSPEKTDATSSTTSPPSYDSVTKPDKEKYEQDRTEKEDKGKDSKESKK

SMILES	tested on	assay	test system	conditions	how to read	quantity	result
CSCC[C@H](NC(=O)[C@H](CC(C)C)NC(=O)[C@H](Cc1c[nH]cn1)NC(=O)CNC(=O)[C@@H](NC(=O)[C@H](C)NC(=O)[C@H](Cc1c[nH]c2ccccc12)NC(=O)[C@H](CCC(N)=O)NC(=O)CCCCCCCNC(=O)CCC(=O)Nc1ccc(CNC23CNCCNCC(N)(CNCCNC2)CNCCNC3)cc1)C(C)C)C(N)=O [copper-64 labelled]	–	–	female SCID mice, PC-3 xenograft, pancreas	intravenous, 1 h, together with: 100 µg Tyr4-bombesin blocking	–	tissue uptake	3.2 ± 0.2 %ID/g
CCCNC(=O)[C@H](CC(C)C)NC(=O)[C@H](Cc1c[nH]cn1)NC(=O)CNC(=O)[C@@H](NC(=O)[C@H](C)NC(=O)[C@H](Cc1c[nH]c2ccccc12)NC(=O)[C@H](CCC(N)=O)NC(=O)[C@@H](Cc1ccccc1)NC(=O)CCCCCNC(=O)CN1CCN(CC(=O)O)CCN(CC(=O)O)CCN(CC(=O)O)CC1)C(C)C [indium-111 labelled]	Gastrin-releasing peptide receptor (Mus musculus, UniProt P21729)	biodistribution	CF-1 mice, blood	intravenous, 1 h, unblocked	–	tissue uptake	0.16 ± 0.09 %ID/g
C[C@@H](O)[C@H](NC(=O)[C@@H]1CSSC[C@H](NC(=O)[C@@H](Cc2ccccc2)NC(=O)CN2CCCN3CCN(CCCN(CP(=O)(O)O)CC3)CC2)C(=O)N[C@@H](Cc2ccc(O)cc2)C(=O)N[C@H](Cc2c[nH]c3ccccc23)C(=O)N[C@@H](CCCCN)C(=O)N[C@@H]([C@@H](C)O)C(=O)N1)C(=O)O [copper-64 labelled]	–	–	male Lewis rat, pituitary	4 h, together with: Y3-TATE 200 µg	–	tissue uptake	0.3 ± 0.07 %ID/g
N=C(N)NCCC[C@@H]1NC(=O)[C@H](CCCCNC(=O)CNC(=O)CNC(=O)CNC(=O)CC[C@H](NC(=O)CCOCCOCCOCCOCCNC(=O)CC[C@H](NC(=O)CN2CCN(CC(=O)O)CCN(CC(=O)O)CCN(CC(=O)O)CC2)C(=O)NCCOCCOCCOCCOCCC(=O)N[C@@H](CCC(=O)NCC(=O)NCC(=O)NCC(=O)NCCCC[C@@H]2NC(=O)[C@@H](Cc3ccccc3)NC(=O)[C@H](CC(=O)O)NC(=O)CNC(=O)[C@H](CCCNC(=N)N)NC2=O)C(=O)NCC(=O)NCC(=O)NCC(=O)NCCCC[C@@H]2NC(=O)[C@@H](Cc3ccccc3)NC(=O)[C@H](CC(=O)O)NC(=O)CNC(=O)[C@H](CCCNC(=N)N)NC2=O)C(=O)NCC(=O)NCC(=O)NCC(=O)NCCCC[C@@H]2NC(=O)[C@@H](Cc3ccccc3)NC(=O)[C@H](CC(=O)O)NC(=O)CNC(=O)[C@H](CCCNC(=N)N)NC2=O)NC(=O)[C@@H](Cc2ccccc2)NC(=O)[C@H](CC(=O)O)NC(=O)CNC1=O [indium-111 labelled]	–	–	female athymic nude mice, heart	intravenous, 3 µCi, 1 h, U-87 MG glioma xenograft	–	tissue uptake	0.61 ± 0.04 %ID/g
CCCC[C@H](NC(=O)CNC(=O)CNC(=O)c1ccc(NN)nc1)C(=O)N[C@H]1CC(=O)NCCCC[C@@H](C(N)=O)NC(=O)[C@H](Cc2c[nH]c3ccccc23)NC(=O)[C@H](CCCNC(=N)N)NC(=O)[C@@H](Cc2ccccc2)NC(=O)[C@H](Cc2c[nH]cn2)NC1=O [technetium-99m labelled]	–	–	C57 mouse, B16/F1 melanoma-bearing, blood	intravenous, 4 h	–	tissue uptake	0.12 ± 0.08 %ID/g
CC(=O)NC(Cc1ccc(Br)c(Cl)c1)C(=O)N[C@@H](C)C(=O)N1CCC[C@H]1C(=O)N1CCC[C@H]1C(=O)N[C@@H](CCC(=O)O)C(=O)N[C@@H](Cc1c[nH]cn1)C(=O)N[C@@H](CO)C(=O)N[C@H](C(=O)N[C@@H](C)C(N)=O)[C@@H](C)OP(=O)(O)O (stereo partly shown)	Serine/threonine-protein kinase PAK 2 (PAK2, Homo sapiens, UniProt Q13177)	–	–	10 µM	–	inhibition	0.15 ± 0.01%
N=C(N)NCCC[C@@H]1NC(=O)[C@H](CCCCNC(=O)CC[C@H](NC(=O)CCOCCOCCOCCOCCNC(=O)CN2CCN(CC(=O)O)CCN(CC(=O)O)CCN(CC(=O)O)CC2)C(=O)NCCCC[C@@H]2NC(=O)[C@@H](Cc3ccccc3)NC(=O)[C@H](CC(=O)O)NC(=O)CNC(=O)[C@H](CCCNC(=N)N)NC2=O)NC(=O)[C@@H](Cc2ccccc2)NC(=O)[C@H](CC(=O)O)NC(=O)CNC1=O [indium-111 labelled]	–	–	female athymic nude mice, lungs	intravenous, 3 µCi, 4 h, U-87 MG glioma xenograft	–	tissue uptake	1.52 ± 0.75 %ID/g
CN[C@](C)(C[18F])C(=O)O	DU-145 tumour model	–	host not given, tumour	15 min, tumour-bearing	–	tracer uptake	3.9 %ID/g
CSCC[C@H](NC(=O)[C@H](CC(C)C)NC(=O)[C@H](Cc1c[nH]cn1)NC(=O)CNC(=O)[C@@H](NC(=O)[C@H](C)NC(=O)[C@H](Cc1c[nH]c2ccccc12)NC(=O)[C@H](CCC(N)=O)NC(=O)CCCCNC(=O)CSCCSCCP(CO)CO)C(C)C)C(N)=O [technetium-99m labelled]	–	–	female CF-1 mouse, whole blood	intravenous, 4 h, blood volume as 6.5% body weight	–	tissue uptake	0.43 %ID
N=C(N)NCCC[C@@H]1NC(=O)[C@H](CCCCNC(=O)CCOCCOCCOCCOCCNC(=O)CN2CCN(CC(=O)O)CCN(CC(=O)O)CCN(CC(=O)O)CC2)NC(=O)[C@@H](Cc2ccccc2)NC(=O)[C@H](CC(=O)O)NC(=O)CNC1=O [indium-111 labelled]	–	–	female athymic nude mice, heart	intravenous, 3 µCi, 0.5 h, U-87 MG glioma xenograft	–	tissue uptake	1.83 ± 0.08 %ID/g
CCN(Cc1ccccc1)C(=O)CCc1nc(CN2CCN(C(=O)Cc3ccc(OC)c(OC)c3)CC2)no1	Sodium channel protein type 9 subunit alpha (SCN9A, Homo sapiens, UniProt Q15858)	sodium current, whole-cell patch clamp	HEK293 stably expressing NaV1.7	10 µM	relative to: control, towards hyperpolarisation	activation curve shift	4.93 mV
CCCC[C@H](NC(=O)CCCCCCCNC(=O)c1ccc(NN)nc1)C(=O)N[C@H]1CC(=O)NCCCC[C@@H](C(N)=O)NC(=O)[C@H](Cc2c[nH]c3ccccc23)NC(=O)[C@H](CCCNC(=N)N)NC(=O)[C@@H](Cc2ccccc2)NC(=O)[C@H](Cc2c[nH]cn2)NC1=O [technetium-99m labelled]	–	–	C57 mouse, B16/F1 melanoma, intestines	intravenous, 0.037 MBq, 4 h	–	tissue uptake	3.43 ± 0.76 %ID
CSCC[C@H](NC(=O)[C@H](CC(C)C)NC(=O)[C@H](Cc1c[nH]cn1)NC(=O)CNC(=O)[C@@H](NC(=O)[C@H](C)NC(=O)[C@H](Cc1c[nH]c2ccccc12)NC(=O)[C@H](CCC(N)=O)NC(=O)CCCCCNC(=O)CNC(=O)CNC(=O)CNC(=O)CSC(C)=O)C(C)C)C(N)=O [technetium-99m labelled]	–	–	healthy Swiss mouse, small intestine, contents removed	intravenous, 18.5 MBq, 5 min	–	tissue uptake	12 ± 3.37 %ID/g

Some of these lines once more:
SMILES	tested on	assay	test system	conditions	how to read	quantity	result
CCCC[C@H](NC(=O)CCCCCCCNC(=O)c1ccc(NN)nc1)C(=O)N[C@H]1CC(=O)NCCCC[C@@H](C(N)=O)NC(=O)[C@H](Cc2c[nH]c3ccccc23)NC(=O)[C@H](CCCNC(=N)N)NC(=O)[C@@H](Cc2ccccc2)NC(=O)[C@H](Cc2c[nH]cn2)NC1=O [technetium-99m labelled]	–	–	C57 mouse, B16/F1 melanoma, intestines	intravenous, 0.037 MBq, 4 h	–	tissue uptake	3.43 ± 0.76 %ID
